{"data": "Experimental data collected from several papers", "note": "Every numbered part comes from another study and shows a few of its results, in no order. Changes are numbered by the printed parent chain."}
{"data": "Series 1", "target": "HLA class I histocompatibility antigen, A alpha chain, allele A*26:03 (Homo sapiens, UniProt P04439)", "read-out": "peptide-MHC binding", "molecule type": "peptide", "tested at": "concentration not given"}
{"Sequence": "PTIPEQKCM", "binding": "inactive"}
{"Sequence": "HTIFDFLAY", "binding": "active"}
{"Sequence": "NQECWDSVF", "binding": "inactive"}
{"data": "Series 2", "target": "Hepatocyte nuclear factor 3-alpha (Foxa1, Mus musculus, UniProt P35582, residues 1-468, full length assumed)", "technique": "EMSA with sequencing", "molecule type": "double-stranded DNA, one strand shown", "sample": "in vitro", "tested at": "10 and 20 nM", "notes": "whole designed probe, mean of two concentrations, ends assumed", "relative to": "negative control set to 0", "direction": "higher = stronger binding", "Residues (chain)": "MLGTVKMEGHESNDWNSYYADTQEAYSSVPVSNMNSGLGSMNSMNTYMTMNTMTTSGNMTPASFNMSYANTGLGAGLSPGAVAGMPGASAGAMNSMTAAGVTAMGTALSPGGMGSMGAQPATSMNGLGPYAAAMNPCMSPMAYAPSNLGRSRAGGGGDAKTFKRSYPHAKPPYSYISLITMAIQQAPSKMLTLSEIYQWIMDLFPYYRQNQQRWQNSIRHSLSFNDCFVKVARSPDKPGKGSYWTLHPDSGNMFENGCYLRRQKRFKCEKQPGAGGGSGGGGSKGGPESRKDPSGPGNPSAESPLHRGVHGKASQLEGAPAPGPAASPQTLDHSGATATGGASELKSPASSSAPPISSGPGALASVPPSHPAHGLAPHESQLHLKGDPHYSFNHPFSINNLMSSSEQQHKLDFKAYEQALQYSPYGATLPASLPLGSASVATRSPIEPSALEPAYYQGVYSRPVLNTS"}
{"Strand": "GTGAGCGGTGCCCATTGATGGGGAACTATAGACTGCGGCAGCCCAGTTCAAAAGAAACAGGCTTTAAAGAAAAGCAAACTGGTGTCCAATGACATCAAATAGAACCAGGAGCTCCAAAGTACATAAGCTTCTTGTCTCTGTTCTTATTTATTTATTGCTGTTGCTCACGCCAGTCAGGGCAGCAGGGGGCTGGCAGGCTTACTCATGGGCCCAGATAAGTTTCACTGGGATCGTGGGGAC", "normalised bound fraction [ratio]": 0.296}
{"Strand": "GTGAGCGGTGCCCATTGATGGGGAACAAACAGAGAACTGACCTTGTGGGAAATTGATATTCTTTAGGAATGGGAATGTCTAGGCAAATGGACAGAGATTACAAAGAGATGGAGCAATAGGCAATTTAGCAATTTTTTGGCAAACAAGGAGTAGTAAGGACCACGGGTGGCCACCCTCTCCACACATACGCTCACTCTCACCGAGGCATACACTTGCTCATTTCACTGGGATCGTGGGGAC", "normalised bound fraction [ratio]": 0.0739}
{"Strand": "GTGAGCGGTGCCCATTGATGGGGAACGGGTCCCGGGCGGCGGCAGGAATGCAGGAATGCGCACAGGCTGTGGGCGGCCAGGAGGGAGTCGGCGGAAGTGCCGGCGCCTGCCCCAGTCTTTGTGTACCCTGTCCAACACCTCCCCCCGCCAGCGCGGAAGGCCGGGCTACCTGCGCGCCTGGCAGCGCCTGGCAGCCGGCTGGGTGGGGCGCAGGGGAGCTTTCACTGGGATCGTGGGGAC", "normalised bound fraction [ratio]": 0.00193}
{"Strand": "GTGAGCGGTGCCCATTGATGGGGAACAGGTGAATTGGCTGCTTCCATCCTGGCTTGGAACTTCAGACATAGAAGCCTTGGGACTTTCTCAGGACTTTCTCCAGATCTGTCACATGCTCAGCAAACAAGCATCTCTGTGGATCACGTGACCTTAGCCAGGGATGTTGGTGAAACTGTGTGTTGGTCTAGGTACCTAGCCCATGCTAGGTGCTCATCGAATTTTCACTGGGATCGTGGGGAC", "normalised bound fraction [ratio]": 0.0921}
{"Strand": "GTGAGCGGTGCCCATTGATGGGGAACTTTTAAGTGAAATCAACTGAAACCTTACTTTTTTTTGCTTTTATACCTAAAATAGAGGATTTAGATATATTTTCTAGGAACGATGATGTAATATGTAATCTAGGAATTTTGGTATTGTTTGAAATATTTTCTCATGGGGACACACCACTAAATTTGTCACCTCTAAAACAGTACTTAGGTTAAATGCTTTTTATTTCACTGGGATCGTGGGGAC", "normalised bound fraction [ratio]": -0.00278}
{"Strand": "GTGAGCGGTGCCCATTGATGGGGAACTCGGCCAGCCTGGCTTCTGCGCCCCGCCAGGAGGTCGCGGAGCGGAGCGCGGCCAGGAAGTGAGCTATGACTCATTCCTCCCCCCACGCTGTTTGTTTATTCATGTCACATTCTCTCCACACACTGGCTCTTCTTTCTTTCGGGAGGAGGGGAGAAAGGAGCGGGAGGGCGGGCGGGCAGGGGAGAGGCAGGCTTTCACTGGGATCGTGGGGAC", "normalised bound fraction [ratio]": 0.422}
{"Strand": "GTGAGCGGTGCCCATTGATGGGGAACTTTCCAGCCCTTAGTTTCTGGCATTTAACCTGACTCTGGTCCCTGAATGGCATGGGAGTGCTTTCACTGACTCATTCCCACATTCATGCCACTTGTTTGCTTTTCTGTCACATTCTGATCTACAGAGATCTTTATTTGCTTTGTGTTTCCAATGGAGAAAGAGCTTGGGAAGGGAGGATCCTAATTGTCTAAATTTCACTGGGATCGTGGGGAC", "normalised bound fraction [ratio]": 0.476}
{"Strand": "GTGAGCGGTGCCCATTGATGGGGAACAAGTATCACAATGATCTTCCATTGCAGAGAAGAAGGAGGAGGGAAGAGACAACATGCATATCATGGAAGGATATGCTTGCCCAAAAACCACAGAGTAAACAAGCACTTACGTTTCATTTGTCAGAATTATGTAGCTTCGTCACTTCCAGCTGAAAGATAGCTGTGTGAAAAGGGTTGTGTTATTTTTTGCAAATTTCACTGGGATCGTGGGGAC", "normalised bound fraction [ratio]": 0.358}
{"data": "Series 3", "target": "UBE2D2 UBC core domain (UniProt P62837)", "technique": "yeast two-hybrid", "sample": "yeast", "notes": "mostly zero background", "relative to": "not given", "direction": "higher = stronger interaction", "B1": "MID1 RING domain (UniProt O15344); chain METLESELTCPICLELFEDPLLLPCAHSLCFNCAHRILVSHCATNESVESITAFQCPTCRHVITLSQRGL", "UniProt P62837, sequence (whole entry, looked up)": "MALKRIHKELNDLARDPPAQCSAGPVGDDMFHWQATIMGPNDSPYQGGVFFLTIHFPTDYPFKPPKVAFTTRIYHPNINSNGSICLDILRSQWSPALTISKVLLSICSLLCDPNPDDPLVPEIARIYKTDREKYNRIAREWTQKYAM"}
{"Sequence": "EDEVSDNSAECVVCLSDVRDTLILPCRHLCLCNTCADTLRYQANNCPICRLPFRALLQIR (RNF157 RING domain (UniProt Q96PX1))", "lacZ reporter activity": 0}
{"Sequence": "PEELQAMDNVCIICREEMVTGAKRLPCNHIFHTSCLRSWFQRQQTCPTCRMDVLRASLPA (SYVN1 RING domain (UniProt Q86TM6))", "lacZ reporter activity": 0}
{"Sequence": "B1 (MID1 RING domain)", "lacZ reporter activity": 0}
{"data": "Series 4", "target": "CCND3, cyclin fold, Cln2 fusion (human)", "technique": "yeast growth competition, sequencing", "sample": "yeast", "notes": "weak parent motif", "relative to": "not given", "direction": "higher = stronger binding", "starting sequence": "SLBP docking peptide (human); ARYKRKLLINDFG; partner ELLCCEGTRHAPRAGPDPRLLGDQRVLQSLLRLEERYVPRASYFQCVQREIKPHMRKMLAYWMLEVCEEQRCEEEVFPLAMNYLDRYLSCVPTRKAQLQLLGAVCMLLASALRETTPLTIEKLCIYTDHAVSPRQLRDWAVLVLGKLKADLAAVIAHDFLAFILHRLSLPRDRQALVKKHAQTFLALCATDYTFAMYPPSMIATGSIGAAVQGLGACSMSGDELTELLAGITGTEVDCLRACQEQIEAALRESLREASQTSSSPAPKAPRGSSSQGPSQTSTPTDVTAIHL"}
{"Change": "Y3D", "normalised enrichment score": 0.0876}
{"Change": "K4W", "normalised enrichment score": 0.233}
{"Change": "A1V", "normalised enrichment score": 0.2}
{"Change": "F12V", "normalised enrichment score": 0.116}
{"Change": "K4I", "normalised enrichment score": 0.0809}
{"Change": "R5S", "normalised enrichment score": 0.181}
{"Change": "N10K", "normalised enrichment score": 0.156}
{"Change": "K4F", "normalised enrichment score": 0.149}
{"note": "Excerpt of the above (series 2):"}
{"Strand": "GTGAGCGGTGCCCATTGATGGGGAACAGGTGAATTGGCTGCTTCCATCCTGGCTTGGAACTTCAGACATAGAAGCCTTGGGACTTTCTCAGGACTTTCTCCAGATCTGTCACATGCTCAGCAAACAAGCATCTCTGTGGATCACGTGACCTTAGCCAGGGATGTTGGTGAAACTGTGTGTTGGTCTAGGTACCTAGCCCATGCTAGGTGCTCATCGAATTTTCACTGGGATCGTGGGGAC", "normalised bound fraction [ratio]": 0.0921}
{"Strand": "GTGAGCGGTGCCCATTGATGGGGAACTCGGCCAGCCTGGCTTCTGCGCCCCGCCAGGAGGTCGCGGAGCGGAGCGCGGCCAGGAAGTGAGCTATGACTCATTCCTCCCCCCACGCTGTTTGTTTATTCATGTCACATTCTCTCCACACACTGGCTCTTCTTTCTTTCGGGAGGAGGGGAGAAAGGAGCGGGAGGGCGGGCGGGCAGGGGAGAGGCAGGCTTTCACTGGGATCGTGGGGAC", "normalised bound fraction [ratio]": 0.422}
{"Strand": "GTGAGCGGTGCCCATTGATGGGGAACTATAGACTGCGGCAGCCCAGTTCAAAAGAAACAGGCTTTAAAGAAAAGCAAACTGGTGTCCAATGACATCAAATAGAACCAGGAGCTCCAAAGTACATAAGCTTCTTGTCTCTGTTCTTATTTATTTATTGCTGTTGCTCACGCCAGTCAGGGCAGCAGGGGGCTGGCAGGCTTACTCATGGGCCCAGATAAGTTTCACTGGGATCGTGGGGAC", "normalised bound fraction [ratio]": 0.296}
